Assay results gathered from unrelated publications.
Each numbered part is a random draw from the data of one study; scales do not carry over between parts.

Block 1 — technique: protein-binding microarray; form: double-stranded DNA, one strand shown; sample: in vitro; concentration: 940 nM top; setting: 60-bp whole probe; together with: salmon DNA 0.4 mg/ml; baseline: random background probes; reading: higher = stronger binding; all sequences stand within: GCCTAGCAC … GTCTTGATTCGCTTGACGCTGCTG
Target: Interferon regulatory factor 5, full length, phosphomimetic (IRF5, Homo sapiens, UniProt Q13568-2, residues 1-514, S451D/S453D/S456D/S462D)
Strand | fitted relative affinity [z-score]
GACAGTATCGGTATCGGGACGTGCTAG | 8.45
TTAGGGTTCGGTTTCGGTTAGTGCTAG | 8.4
TTAGGTTTCGCGACTGGGTTAGTGCTA | 2.93
GACGATTTCGGTATCGAGACGTGCTAG | 3.9
TTAGGACTAGGTCTCGGTTAGTGCTAG | 1.23
TTAGGTTTCGACCATCGGTTAGTGCTA | 8.77
GACGATCTCAATTTCGAGACGTGCTAG | 0.548
TTAGATTTCTGTCTCGATTAGTGCTAG | 3.08
GACGGTATCGGGTTCGGGACGTGCTAG | 4.17
GACGGTTTCGGGGATCGGGACGTGCTA | 7.07
CCCTTATTCTAGCCTCCATTTGTGCTA | 1.39
TCATCTCTGTTTATGTCACTGTGCTAG | 2.23
TCATATTTAAGGCATCTGACTGTGCTA | 0.0415
GACGAACTGGGGTCTGGAGACGTGCTA | 0.0167
CTAGGTTTCGGGTTTCGGTTAGTGCTA | 10.4
TTAGACCTGAGTTTCGATTAGTGCTAG | 7.38
TCATGTCTGGGTATTTTACTGTGCTAG | -0.0317
GCCGGTATCCTACTGCTGACGTGCTAG | 0.0244
GACGGTATCGACTATTGGGACGTGCTA | 4.49

Block 2 — technique: protein-binding microarray; form: double-stranded DNA, one strand shown; sample: in vitro; concentration: not given; reading: higher = stronger binding
Target: Hepatocyte nuclear factor 3-beta, forkhead domain (FOXA2, Homo sapiens, UniProt Q9Y261, residues 142-269)
Setting: k-mer, scored over probes, only values ≥0.25
Construct (chain): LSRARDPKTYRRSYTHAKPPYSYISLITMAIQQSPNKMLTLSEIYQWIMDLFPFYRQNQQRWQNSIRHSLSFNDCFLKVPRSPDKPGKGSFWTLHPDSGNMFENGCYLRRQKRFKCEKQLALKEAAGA
Strand | E-score
AATACTGT | 0.26
AACAACAT | 0.291
CCTTGTAA | 0.275
CCTATTAC | 0.258
ACTATATA | 0.347
ATGTATTG | 0.379
CAGGTAAA | 0.279
ACGATTTA | 0.278
ACATCACT | 0.276
AATTATTA | 0.292
AAATAATT | 0.31
TATTGTCA | 0.305
AATTATGG | 0.251
AGACATAT | 0.289
AACTATAT | 0.346
CTACACCA | 0.315
AATATTAG | 0.301
ATATGACA | 0.301
TAAATATA | 0.393
GTATTCAC | 0.251
TACCTACA | 0.275
ACATGTAT | 0.345
AATTAATA | 0.338
AACTAACA | 0.288
TAATAGTA | 0.288

Block 3 — technique: universal PBM; form: double-stranded DNA, one strand shown; sample: in vitro; concentration: not given; reading: higher = stronger binding
Target: Sal-like protein 4, full length isoform B (SALL4, Homo sapiens, UniProt Q9UJQ4-2, residues 1-616)
Setting: 8-mer, flanks averaged, mean of replicates
Strand | E-score
AAGTGAAC | 0.0362
CTTGCCGC | -0.302
GAAGACAC | -0.0627
AGGCCCGC | -0.322
AGGCCTGG | -0.282
ACGATGCT | -0.173
TGGAACCA | -0.0895
CACTCAAC | 0.127
CTTCCTCA | -0.0546
ATCAGCGG | -0.264
TCATTAAA | 0.236
AGAGCTAC | -0.0227
AACGCTGG | -0.189
AACCCCGG | -0.33
AAATGTTA | 0.291
GGATCCGA | -0.15

Block 4 — technique: protein binding microarray; form: double-stranded DNA, one strand shown; sample: in vitro; concentration: not given; baseline: not given; reading: higher = stronger binding
Target: Histone acetyltransferase KAT6A, winged helix 2, GST fusion (KAT6A, Homo sapiens, UniProt Q92794, residues 85-181)
Setting: 8-mer, flanks averaged, mean of 2 arrays, mostly near background
Construct (chain): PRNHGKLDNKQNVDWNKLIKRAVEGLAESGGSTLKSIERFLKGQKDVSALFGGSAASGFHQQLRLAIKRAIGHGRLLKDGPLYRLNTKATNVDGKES
Strand | E-score
GGAAGCAA | 0.0638
TCCCTACA | -0.11
AGTACAGA | -0.0245
AGATCGGA | 0.153
AGTGACAG | 0.0737
GCCGACCA | 0.0755
CTCAATGA | -0.0627
AAAGCTTA | 0.046
AATGGAAT | 0.162
CTGAAACC | 0.102
ACGATCTA | -0.1
AGATCCAG | 0.11
GGAGACCC | -0.127
ACTCTTAC | -0.0136
AAAAAGGA | 0.204
CATAGACC | -0.155
TACCATAA | -0.0721
AGGGCTCA | -0.0395
ACTAGGTA | -0.113
GAGCTTAA | 0.0207
GGAGAGGA | -0.0643
CCTTGTTA | 0.0886
CGATTAGA | -0.0393
AACTAACA | -0.0312
CGAGGGGA | 0.144
